Published values collected from several papers.
Lines come from different studies, so protocols differ. ± gives the spread as reported.

N=C(N)NCCC[C@@H]1NC(=O)[C@H](CCCCNC(=O)CC[C@H](NC(=O)CCOCCOCCOCCOCCNC(=O)CC[C@H](NC(=O)CN2CCN(CC(=O)O)CCN(CC(=O)O)CCN(CC(=O)O)CC2)C(=O)NCCOCCOCCOCCOCCC(=O)N[C@@H](CCC(=O)NCCCC[C@@H]2NC(=O)[C@@H](Cc3ccccc3)NC(=O)[C@H](CC(=O)O)NC(=O)CNC(=O)[C@H](CCCNC(=N)N)NC2=O)C(=O)NCCCC[C@@H]2NC(=O)[C@@H](Cc3ccccc3)NC(=O)[C@H](CC(=O)O)NC(=O)CNC(=O)[C@H](CCCNC(=N)N)NC2=O)C(=O)NCCCC[C@@H]2NC(=O)[C@@H](Cc3ccccc3)NC(=O)[C@H](CC(=O)O)NC(=O)CNC(=O)[C@H](CCCNC(=N)N)NC2=O)NC(=O)[C@@H](Cc2ccccc2)NC(=O)[C@H](CC(=O)O)NC(=O)CNC1=O [indium-111 labelled]  tumour to tissue ratio (athymic nude mice, female, U-87 MG glioma xenograft, tumour and kidney; intravenous, 72 h; reference: tumour over kidney): 1.28 ± 0.59
CCCC[C@H](NC(=O)[C@H](Cc1cccs1)NC(=O)[C@H](Cc1c[nH]cn1)NC(=O)CCNC(=O)[C@@H](NC(=O)[C@H](C)NC(=O)[C@H](Cc1c[nH]c2ccccc12)NC(=O)[C@H](CCC(N)=O)NC(=O)[C@H](Cc1cccs1)NC(=O)CN1CCC(NC(=O)CN(CCN(CCN(CC(=O)O)CC(=O)O)CC(=O)O)CC(=O)O)CC1)C(C)C)C(N)=O [indium-111 labelled]  tumour to pancreas ratio increase (Swiss nu/nu mice, PC-3 xenograft; intravenous, 10 pmol, 1 h to 24 h post injection): 2.7 fold
N=C(N)NCCC[C@@H]1NC(=O)[C@H](CCCCNC(=O)CNC(=O)CNC(=O)CNC(=O)CC[C@H](NC(=O)c2ccc(NN=Cc3ccccc3S(=O)(=O)O)nc2)C(=O)NCC(=O)NCC(=O)NCC(=O)NCCCC[C@@H]2NC(=O)[C@@H](Cc3ccccc3)NC(=O)[C@H](CC(=O)O)NC(=O)CNC(=O)[C@H](CCCNC(=N)N)NC2=O)NC(=O)[C@@H](Cc2ccccc2)NC(=O)[C@H](CC(=O)O)NC(=O)CNC1=O [technetium-99m labelled]  tumour uptake (female athymic nu/nu mice, U-87 MG glioma, tumour; intravenous, dose not given, 120 min, tumour weight 0.1-0.25 g): 8 to 14 %ID/g
CC[C@@]1(OC(=O)CCC(=O)NCCCC[C@H](NC(=O)[C@H](Cc2ccccc2)NC(=O)[C@H](Cc2ccccc2)NC(=O)CCSC2=C(/C=C/C3=[N+](C)c4ccccc4C3(C)C)CCC/C2=C\C=C2\N(C)c3ccccc3C2(C)C)C(=O)N[C@@H](CCCCNC(=O)CCCC[C@@H]2SC[C@@H]3NC(=O)N[C@@H]32)C(=O)O)C(=O)OCc2c1cc1n(c2=O)Cc2cc3ccccc3nc2-1  tumour to normal tissue ratio (fluorescence imaging; BALB/c nude mice with 4T1 tumour; intravenous, 0.05 µmol/kg, 24 h post injection; reference: tumour over healthy tissue): 11.1
N=C(N)NCCC[C@@H]1NC(=O)[C@H](CCCCNC(=O)CCOCCOCCOCCOCCOCCOCCOCCOCCOCCOCCOCCOCCNC(=O)CCSC2CC(=O)N(CCC(=O)NCCCC[C@H](NC(=O)CCC(C(=O)O)N3CCN(C(CCC(=O)N[C@@H](CCCCNC(=O)CCN4C(=O)CC(SCCC(=O)NCCOCCOCCOCCOCCOCCOCCOCCOCCOCCOCCOCCOCCC(=O)NCCCC[C@@H]5NC(=O)[C@@H](Cc6ccc(O)cc6)NC(=O)[C@H](CC(=O)O)NC(=O)CNC(=O)[C@H](CCCNC(=N)N)NC5=O)C4=O)C(=O)N(CCCNC(=O)CN4CCN(CC(=O)O)CCN(CC(=O)O)CCN(CC(=O)O)CC4)CCCNC(=O)CN4CCN(CC(=O)O)CCN(CC(=O)O)CCN(CC(=O)O)CC4)C(=O)O)CCN(C(CCC(=O)N[C@@H](CCCCNC(=O)CCN4C(=O)CC(SCCC(=O)NCCOCCOCCOCCOCCOCCOCCOCCOCCOCCOCCOCCOCCC(=O)NCCCC[C@@H]5NC(=O)[C@@H](Cc6ccc(O)cc6)NC(=O)[C@H](CC(=O)O)NC(=O)CNC(=O)[C@H](CCCNC(=N)N)NC5=O)C4=O)C(=O)N(CCCNC(=O)CN4CCN(CC(=O)O)CCN(CC(=O)O)CCN(CC(=O)O)CC4)CCCNC(=O)CN4CCN(CC(=O)O)CCN(CC(=O)O)CCN(CC(=O)O)CC4)C(=O)O)CC3)C(=O)N(CCCNC(=O)CN3CCN(CC(=O)O)CCN(CC(=O)O)CCN(CC(=O)O)CC3)CCCNC(=O)CN3CCN(CC(=O)O)CCN(CC(=O)O)CCN(CC(=O)O)CC3)C2=O)NC(=O)[C@@H](Cc2ccc(O)cc2)NC(=O)[C@H](CC(=O)O)NC(=O)CNC1=O (stereo partly shown) [gallium-68 labelled]  tumour uptake reduction (SCID mice, U-87 MG xenograft tumour; 6.0 mg, unit not given; reference: 0.1 mg over 6.0 mg dose): ~3
CC(C)C[C@H](NC(=O)C[C@H](O)[C@H](CC(C)C)NC(=O)[C@H](Cc1c[nH]cn1)NC(=O)CNC(=O)[C@@H](NC(=O)[C@H](C)NC(=O)[C@H](Cc1c[nH]c2ccccc12)NC(=O)[C@H](CCC(N)=O)NC(=O)[C@@H](Cc1ccccc1)NC(=O)c1ccc(NC(=O)CNC(=O)CCC(C(=O)O)N2CCN(CC(=O)O)CCN(CC(=O)O)CC2)cc1)C(C)C)C(N)=O (stereo partly shown) [fluorine-18 labelled]  tumour uptake (PET imaging; mice with PC-3 xenograft, tumour; intravenous, 0.5 h post injection): 4.6 ± 1.5 %ID/g
N=C(N)NCCC[C@@H]1NC(=O)[C@H](CCCCNC(=O)CCOCCOCCOCCOCCNC(=O)CN2CCN(CC(=O)O)CCN(CC(=O)O)CCN(CC(=O)O)CC2)NC(=O)[C@@H](Cc2ccccc2)NC(=O)[C@H](CC(=O)O)NC(=O)CNC1=O [indium-111 labelled]  tumour to tissue ratio (athymic nude mice, female, U-87 MG glioma xenograft, tumour and heart; intravenous, 72 h; reference: tumour over heart): 7.62 ± 1.67
N=C(N)NCCC[C@H](NC(=O)[C@H](CCCCN)NC(=O)[C@H](CCC(N)=O)NC(=O)CCOCCOCCOCCNC(=O)CN1CCN(CC(=O)O)CCN(CC(=O)O)CCN(CC(=O)O)CC1)C(=O)N[C@@H](CCCCN)C(=O)N[C@@H](CCCNC(=N)N)C(=O)N[C@@H](CCCCN)C(=O)N[C@@H](CCCCN)C(=O)N[C@@H](CO)C(=O)N[C@@H](CCCNC(=N)N)C(=O)N[C@@H](Cc1ccc(O)cc1)C(=O)N[C@@H](CCCCN)C(=O)N[C@@H](CO)C(=O)O [copper-64 labelled]  tumour uptake (C57BL/6 mice, B16-F10 melanoma; intravenous, 20 min, decay corrected): ~5.89 %ID/g
CC[C@H]1c2cc3[nH]c4c(c3C)C(=O)[C@H](C(=O)OC)c4c3nc(cc4[nH]c(cc(n2)[C@@H]1C)c(C(C)=O)c4C)[C@@H](C)[C@@H]3CCC(=O)NCC(=O)N[C@H](CC(=O)O)C(=O)N[C@H](CCC(=O)O)C(=O)N[C@@H](C(=O)N[C@H](CC(=O)O)C(=O)NCC(=O)N[C@H](CO)C(=O)NCC(=O)N[C@H](CCCCNC(=O)CC[C@H](NC(=O)c1ccc(NCc2cnc3nc(N)[nH]c(=O)c3n2)cc1)C(=O)O)C(N)=O)C(C)C  tumour fluorescence change (nude mice, HT-1080 xenograft; intravenous, 25 nmol, 5 h to 24 h, low folate receptor tumour): decreased
CCCC[C@H](NC(=O)CCCCCCCNC(=O)c1ccc(NN)nc1)C(=O)N[C@H]1CC(=O)NCCCC[C@@H](C(N)=O)NC(=O)[C@H](Cc2c[nH]c3ccccc23)NC(=O)[C@H](CCCNC(=N)N)NC(=O)[C@@H](Cc2ccccc2)NC(=O)[C@H](Cc2c[nH]cn2)NC1=O [technetium-99m labelled]  tumour uptake blocked (B16/F1 melanoma-bearing C57 mice, tumour; concentration not given, 2 h post-injection, together with: NDP-MSH 10 µg): 94.5%

Excerpt of the above:
N=C(N)NCCC[C@@H]1NC(=O)[C@H](CCCCNC(=O)CC[C@H](NC(=O)CCOCCOCCOCCOCCNC(=O)CC[C@H](NC(=O)CN2CCN(CC(=O)O)CCN(CC(=O)O)CCN(CC(=O)O)CC2)C(=O)NCCOCCOCCOCCOCCC(=O)N[C@@H](CCC(=O)NCCCC[C@@H]2NC(=O)[C@@H](Cc3ccccc3)NC(=O)[C@H](CC(=O)O)NC(=O)CNC(=O)[C@H](CCCNC(=N)N)NC2=O)C(=O)NCCCC[C@@H]2NC(=O)[C@@H](Cc3ccccc3)NC(=O)[C@H](CC(=O)O)NC(=O)CNC(=O)[C@H](CCCNC(=N)N)NC2=O)C(=O)NCCCC[C@@H]2NC(=O)[C@@H](Cc3ccccc3)NC(=O)[C@H](CC(=O)O)NC(=O)CNC(=O)[C@H](CCCNC(=N)N)NC2=O)NC(=O)[C@@H](Cc2ccccc2)NC(=O)[C@H](CC(=O)O)NC(=O)CNC1=O [indium-111 labelled]  tumour to tissue ratio (athymic nude mice, female, U-87 MG glioma xenograft, tumour and kidney; intravenous, 72 h; reference: tumour over kidney): 1.28 ± 0.59
CCCC[C@H](NC(=O)[C@H](Cc1cccs1)NC(=O)[C@H](Cc1c[nH]cn1)NC(=O)CCNC(=O)[C@@H](NC(=O)[C@H](C)NC(=O)[C@H](Cc1c[nH]c2ccccc12)NC(=O)[C@H](CCC(N)=O)NC(=O)[C@H](Cc1cccs1)NC(=O)CN1CCC(NC(=O)CN(CCN(CCN(CC(=O)O)CC(=O)O)CC(=O)O)CC(=O)O)CC1)C(C)C)C(N)=O [indium-111 labelled]  tumour to pancreas ratio increase (Swiss nu/nu mice, PC-3 xenograft; intravenous, 10 pmol, 1 h to 24 h post injection): 2.7 fold
